Measured values of several laboratories.
Parts stem from different laboratories: compare values within a part only. Substitutions count along the parent as printed.

Series 1
Target: RING finger protein unkempt homolog, zinc fingers 1-6, GST-SBP tag (UNK, Homo sapiens, UniProt Q9C0B0, residues 30-357)
Technique: RNA Bind-n-Seq
Molecule type: RNA
Sample: in vitro
Tested at: not given
Setting: RNA with constant flanks, human-mouse chimeric sites, ends assumed
Relative to: input RNA pool
Direction: higher = stronger binding
Shared flanks, not repeated: GGGAGUUCUACAGUCCGACGAUC … CAACAGAGGAUUGAGCAUCA
Residues (chain): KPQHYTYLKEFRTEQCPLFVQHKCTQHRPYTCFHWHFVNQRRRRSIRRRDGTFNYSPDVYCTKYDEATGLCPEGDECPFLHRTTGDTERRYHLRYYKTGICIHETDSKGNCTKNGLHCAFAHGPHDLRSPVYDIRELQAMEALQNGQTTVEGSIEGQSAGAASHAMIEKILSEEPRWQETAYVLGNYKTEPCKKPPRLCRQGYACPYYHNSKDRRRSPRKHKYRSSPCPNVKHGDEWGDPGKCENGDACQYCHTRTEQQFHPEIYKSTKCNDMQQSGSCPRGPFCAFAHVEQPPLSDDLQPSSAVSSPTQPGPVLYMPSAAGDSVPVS
Oligonucleotide	bound/input enrichment
UUGAAAACUGAUUCAAGCAAGUUUGAAUAUCACAAUGUUAGCUUUCUAAUUCCAUAAAAGUACUUGGUUUUUACAGUUUAUAAUCUGACAUCACCCCAGCGCCAUUUGUAAAGAGCAACU	0.686 ratio
GAUGAUAAUCACACAAAUGUGGCACUUUUAUGUGACCAGCCUUGGGAUUCUUUUCCUGAUUAAUAUUCUCCCUGGAACCACUGGUCAAGGGGAAUCAAGACGACAAGAACCCGGGGACUU	0.0971 ratio
CUGAAAAACACAGAUAUCAAAGUUGUUGACUUUGGAAGUGCAACGUAUGAUGAUGAACAUCACAGUACUUUGGUGUCCACAAGGCACUACAGAGCUCCAGAGGUCAUUUUGGCUUUAGGU	0.217 ratio
GUGCCCUUCUCGCUGCUGCGGAGCCCGCCCAGCUGGGCAUUCCGGGACUGGUACCCUGCACACAGCCGCCUCUUCGAUCAAGCUUUCGGGCUGCCCCGGUUGCCCGAUGAGUGGUCGCAG	0.0596 ratio
CAGUCCCCGUGUCCCAGUGCAGGACGAUGUGAACAAAAACUCAAAGCGGCCCUUUCUUUGUAGUUCUUGAUUCUCGAAAUGUGCUAUUAUUGUUUGUAAAAAAGGAAUUUUUUUUAAAGA	0.336 ratio

Series 2
Target: Histone acetyltransferase KAT6A, winged helix 2, GST fusion (KAT6A, Homo sapiens, UniProt Q92794, residues 85-181)
Technique: protein binding microarray
Molecule type: double-stranded DNA, one strand shown
Sample: in vitro
Tested at: not given
Setting: 8-mer, flanks averaged, mean of 2 arrays, mostly near background
Relative to: not given
Direction: higher = stronger binding
Construct (chain): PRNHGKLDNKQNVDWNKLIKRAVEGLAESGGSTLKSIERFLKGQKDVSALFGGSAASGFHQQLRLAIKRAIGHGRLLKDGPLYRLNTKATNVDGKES
Oligonucleotide	E-score
AACCGGTC	-0.0759
AAGTACAG	-0.0695
GAGCCTCC	0.0227
CTTAGAGA	0.0501
ACCATACG	-0.161
GTATACTA	-0.149
AAGCCCGG	0.0338
GGCATGAC	-0.155
TCTGTTCA	-0.114
CTAGGCGA	-0.0788
ACGTGACA	-0.218
ATGGAACG	-0.0833
CCATAACA	0.156
CCCGGGGC	0.236
CGAATTGC	-0.115
GACCACCA	0.057
ATTCTCGA	-0.0193
ATTACAAG	-0.126
GACTATCA	-0.162
AAGGCATC	-0.11
ACGACACA	-0.0271
CTGCGTCC	0.182
ATGATTCC	0.0728

Series 3
Target: CCNB3, cyclin fold, Cln2 fusion (human)
Technique: yeast growth competition, sequencing
Sample: yeast
Setting: weak parent motif
Relative to: not given
Direction: higher = stronger binding
Parent: LLGL2 docking peptide (human); KSLKKSLRQSFRR; partner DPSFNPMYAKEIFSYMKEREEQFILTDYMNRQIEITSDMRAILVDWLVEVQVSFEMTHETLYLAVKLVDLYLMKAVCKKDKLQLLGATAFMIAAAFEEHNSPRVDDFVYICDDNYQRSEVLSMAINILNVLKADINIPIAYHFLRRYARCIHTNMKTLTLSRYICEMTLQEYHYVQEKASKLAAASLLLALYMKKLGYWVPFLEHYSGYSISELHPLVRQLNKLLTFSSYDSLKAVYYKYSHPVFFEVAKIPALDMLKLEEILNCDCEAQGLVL
Variant	normalised enrichment score
S10A	0.242
R8A	0.127
L7A	0.303
S6A	-0.0852
L3A	-0.037
K4A	0.463

Series 4
Target: Ras GTPase-activating protein-binding protein 1, C-terminal RGG region (G3BP1, Homo sapiens, UniProt Q13283)
Sequence of UniProt Q13283 (whole entry, looked up): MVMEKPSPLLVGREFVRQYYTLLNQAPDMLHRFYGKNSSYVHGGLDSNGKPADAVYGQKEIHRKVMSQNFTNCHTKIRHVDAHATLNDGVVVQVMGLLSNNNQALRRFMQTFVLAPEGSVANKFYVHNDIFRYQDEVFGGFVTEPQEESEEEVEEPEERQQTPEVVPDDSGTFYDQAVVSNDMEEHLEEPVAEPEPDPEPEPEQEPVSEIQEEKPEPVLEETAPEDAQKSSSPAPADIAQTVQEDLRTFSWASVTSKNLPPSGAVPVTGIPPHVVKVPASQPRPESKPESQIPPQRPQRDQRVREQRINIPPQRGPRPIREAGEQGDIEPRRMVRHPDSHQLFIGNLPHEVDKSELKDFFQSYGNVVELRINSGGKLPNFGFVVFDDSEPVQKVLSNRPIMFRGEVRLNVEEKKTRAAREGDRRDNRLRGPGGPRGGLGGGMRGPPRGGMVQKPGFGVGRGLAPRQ
Technique: RNA Bind-n-Seq
Molecule type: RNA
Sample: in vitro
Tested at: 1 µM
Setting: whole 134-nt RNA, ends assumed
Together with: 150 mM KCl
Relative to: input library
Direction: higher = stronger binding
Shared flanks, not repeated: GGGAGUUCUACAGUCCGACGAUC … UGGAAUUCUCGGGUGUCAAGG
Oligonucleotide	log2 enrichment
GGCAGGAGGAAGAGCGCAGGCGCCGUGAAGAAGAGAUGCGGCGGCAGCAAGAAGAAAUGAUGCGGCGACAGCAGGAAGGAUUCAAGGGAA	-0.436
CCUCAAGUCCUGUGCUACACAUCGUAUGUACCGAAUCGGGGUGGUGGGGUGGGAAAGUAUUAUGUUACGCCGUUCGGAUCUGCACUUCCA	0.296
CCUCAAGUCCUGUGCUACACAUCGUAUGUACCGAAUCGGGAGGAGGGGAGGGAAAGUAUUAUGUUACGCCGUUCGGAUCUGCACUUCCAG	0.9
ACCAUGCAGGUGGGCAUCUUUGGGAAGUGGGGCAAGGGGGGGAUAGGGAGGGGGGUAACACUUUGGGAACAGGUGGCCCCAGGUCGUUUC	1.46
CACACACAACACGCACCCACACAGACACAGAGGGAAGGGGUUGGGAUGGGGACAGGGUGCACAGCAGGGCGGGGUAGGACCCCAGCCCCU	-0.276
UUAUAAUUGAUGAUCAUCCUGAAGUAACAGUAAUUGAAGAUCCCCAGUCAAAUUUGAAUGAUGAUGGUUUUACUGAAGUGGUAUCCAAAA	-1.78
UGCCUGGCCCAGUGCUGGGUUUGCCUUGUUGACGAUGCGCUUGGAUUGUUAAGGACACCGAUGUUCAGAACCCGGGAAGAGUCAUCUUAA	-2.49
UCCUGUGCUACACAUCGUAUGUACCGAAUCGGAAAAAAGGGAAAAAAGGGGAAAAAAGGGAAAGUAUUAUGUUACGCCGUUCGGAUCUGC	-1.31
AAGUCCUGUGCUACACAUCGUAUGUACCGAAUCGGAGGUUUUUUUGGUUUUUUUGGAAAGUAUUAUGUUACGCCGUUCGGAUCUGCACUU	-2.08

Series 5
Target: RNA binding protein fox-1 homolog 2, RRM domain, GST-SBP tag (RBFOX2, Homo sapiens, UniProt O43251-10, residues 100-194)
Technique: RNA Bind-n-Seq
Molecule type: RNA
Sample: in vitro
Tested at: 365 nM
Setting: natural RNA segment, single round, ends assumed
Relative to: no-protein control
Direction: higher = stronger binding
Shared flanks, not repeated: GGGAGUUCUACAGUCCGACGAUC … UGGAAUUCUCGGGUGCCAA
Construct (chain): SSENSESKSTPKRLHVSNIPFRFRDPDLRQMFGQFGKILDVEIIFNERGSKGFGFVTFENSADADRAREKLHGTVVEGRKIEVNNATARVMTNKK
Oligonucleotide	RBNS enrichment (R)
AGUGCCCCUGCCCUAGGGGUGUCUGUCUCCAGAGGGGAGGGACAAAUCCCCUACUGGGGCCAUUUCAAUGGGGUAGUUUUUGGAUUUUUUUCCCCACUCACUUUUUAUUU	0.586
AUUUUGUAUGUAAAUGUGUUAGCACUGAUAGUCCUUUUCCAGUGUUUUAUUGGGAAAUUAAAUAGUGUGAUAUUUGGGUUGAUAUAAUGAAAUCCUCAGCCUGGAAACUG	0.935
CAUAGGCCCGGCAUGGCUGUCGCUGGACGCCAGCUGUGCACACCCAGCCACACCUGCUGCACGCCGCGUUAGUGUGCGGCUCCGGGCCUGAGCAUUCGCAAAGCUCGCUU	0.55
UCUCAACAAAAGGUAUAUGCCUUCAGGAAUGAUAUAAUCUGUCCCAUUUUCGAGGCUCCUUAUAAGGACAUUUCCAUGUAUGUCCUUACAUUUCUGAAAGCUUUCAAUCU	0.231
UUGUGUCUGUGUAUAUACUGUGCCUUUUCUCCUUGUCGAGGGGUGGGAGGGGUUGGUUUUUCACUGAACAGGGGAUAUGCCUAUGUCUUCAUCAGUGUUGAAACAUUCAC	0.336
UUAAGGGCCGGGGAUGGAUCUUUUCUAAAUGUUAUUACUUGUAAAUAAAGUCUAUUUUUCUCCCGUGGUACUGAGUUGACUUGAUCGGUGUGGGAAAAAGAGGAAUAUAG	1.33
UAGGAUCUUAAGGCCCUGGCAGAGCUCAGAGACGCGCAGCAUUACCAAUACUACUGUGUGUACCAAGUGUGGAGGGGCUGGUCACAUUGCUUCUGAUUGCAAAUUUCAGA	0.509
GGGUGACCAAAACAGUACAUCAGUUCCUGAGAUAUUCAAGCAAAUGCCCCCGAUAGCAUAGUGUGUGCCAACCGGUACACCUGACUCAGCAUUAGGAUCCUAUAACCAUG	0.297

For quick reference, copied from above (series 2):
Oligonucleotide	E-score
GTATACTA	-0.149
AAGCCCGG	0.0338
GGCATGAC	-0.155
TCTGTTCA	-0.114
